# Measured values collected from several papers.
# Protocols differ between the studies behind these lines.
Structure (SMILES),cell line,effect on,technique,sample,time,notes,GI50
CC#CC(=O)N1CC[C@@H](n2cc(-c3ccc(Oc4c(F)cccc4F)cc3)c3c(N)n[nH]c(=O)c32)C1,REC-IKZF1^KO,cell growth,,,72 h,,17.9 µM
CCc1n(Cc2ccc3ccccc3n2)cc[n+]1Cc1ccc2ccccc2c1,NCI60 NSCLC cell lines,cell growth,,,,,≤ 3.93 µM
O=C(/C=C/C=C/C=C/C1CCCCC1)NC1=C[C@@](O)(/C=C/C=C/C=C/C(=O)NC2=C(O)CCC2=O)[C@@H]2O[C@@H]2C1=O,SW1088,cell growth,CellTiter-Glo,,78 h,,17.4 µM
CCCc1n(Cc2ccc3ccccc3n2)cc[n+]1Cc1ccc2ccccc2n1,NCI60 NSCLC cell lines,cell growth,,,,,≤ 12.5 µM
Cc1c(C(=O)O)ccc2c3n(nc12)[C@@H]1[C@H](C3)N(CC2CC2)[C@@]2(C(=O)Nc3cc(Cl)ccc32)[C@H]1c1cccc(Cl)c1F,UM-UC-11,,alamarBlue,bladder cancer cells,,unbound concentration,0.00041 µM
CN(C)C(=O)c1cncc(-c2cnc3[nH]cc(-c4ccccc4C(F)(F)F)c3c2)c1,Ba/F3 BCR-ABL T315I,cell proliferation,,,72 h,,> 1 µM
Cn1cncc1C1=CN(c2ncnc3[nH]cnc23)CCS1,786-0,,,,,renal cancer cell line,14.8 µM
CCCc1n(Cc2ccc3ccccc3n2)cc[n+]1Cc1ccc2ccccc2c1,NCI60 NSCLC cell lines,cell growth,,,,,≤ 3.93 µM
COc1ccc(C#N)cc1-c1c[nH]c2ncc(-c3cncc(C(=O)N(C)C)c3)cc12,Ba/F3 BCR-ABL T315I,cell proliferation,,,72 h,,> 1 µM

# For quick reference, copied from above:
Structure (SMILES),cell line,effect on,technique,sample,time,notes,GI50
CCCc1n(Cc2ccc3ccccc3n2)cc[n+]1Cc1ccc2ccccc2n1,NCI60 NSCLC cell lines,cell growth,,,,,≤ 12.5 µM
